Measured values collected from several papers.
Protocols differ between the studies behind these lines. Numbers after ± are the reported error.
Technique: steady-state kinetics
B1: HARS1 Y330C (Homo sapiens, UniProt P12081); chain MAERAALEELVKLQGERVRGLKQQKASAELIEEEVAKLLKLKAQLGPDESKQKFVLKTPKGTRDYSPRQMAVREKVFDVIIRCFKRHGAEVIDTPVFELKETLMGKYGEDSKLIYDLKDQGGELLSLRYDLTVPFARYLAMNKLTNIKRYHIAKVYRRDNPAMTRGRYREFYQCDFDIAGNFDPMIPDAECLKIMCEILSSLQIGDFLVKVNDRRILDGMFAICGVSDSKFRTICSSVDKLDKVSWEEVKNEMVGEKGLAPEVADRIGDYVQQHGGVSLVEQLLQDPKLSQNKQALEGLGDLKLLFEYLTLFGIDDKISFDLSLARGLDCYTGVIYEAVLLQTPAQAGEEPLGVGSVAAGGRYDGLVGMFDPKGRKVPCVGLSIGVERIFSIVEQRLEALEEKIRTTETQVLVASAQKKLLEERLKLVSELWDAGIKAELLYKKNPKLLNQLQYCEEAGIPLVAIIGEQELKDGVIKLRSVTSREEVDVRREDLVEEIKRRTGQPLCIC
B2: protein G96D (Streptomyces coelicolor, UniProt P16544); chain MATQDSEVALVTGATSGIGLEIARRLGKEGLRVFVCARGEEGLRTTLKELREAGVEADGRTCDVRSVPEIEALVAAVVERYGPVDVLVNNAGRPGDGATAELADELWLDVVETNLTGVFRVTKQVLKAGGMLERGTGRIVNIASTGGKQGVVHAAPYSASKHGVVGFTKALGLELARTGITVNAVCPGFVETPMAASVREHYSDIWEVSTEEAFDRITARVPIGRYVQPSEVAEMVAYLIGPGAAAVTAQALNVCGGLGNY
B3: protein (Trypanosoma brucei, UniProt Q382C3); chain MKRSVSKVWLNEDTPNDPYPLYAPSPLPPKRPGTIRVWVDGCFDMLHFGHANALRQARSMGDELFVGCHTDEEIIRHKGPPSMRQEERYEALRACKWVDAVIEGYPYVTRVEDMKRFEVDFVVHGDDISVDLNGRNSYQAIIDAGMFKAVRRTECISTTDLVGRMLLCVPSELLSDADKKLLDSEVARKRGPHYLTTSRKIAQFSNKLAPPVGATVVYVDGAFDLFHAGHIRFLQKARALGDYLIVGIHDDQLVRESKGEHFPIMSLNERALGVLSCRYVDDVVFGAPRGVTQEMIKILDIKIVACGTSSETRNCKGAFDVYEVPKSLNLFKVVESGSDLSTDMIVERVVKNHVVLLERQFLKHMKDSEAELRKPDVYRNVREV
B4: protein (Irpex lacteus, UniProt A0A510I1H7); chain QSQVWGQCGGIGWTGATTCVAGSVCTKSNDYYSQCIPGAAAPSSAPPASTPVSVPPSQPSGSSGGLANIPASKLTQFSNFGTNPNNVQMFVYKPKNVAANPPLIVASHYCSGTAQAYFTGSKFAQLAETYGYVVIFPSSPHSGTCWDVSSDETLMHDGGSDSLSIANAARFAISNWGVDPNRVFAVGTSSGAMMTSVLAGAYPDIFKAGIVDSGVAFGCFAVPGQPEDSWNSQCSEGQLVLTGQQWAQKVKNAFPGFTGTYPKMQVWHGTADTTLYPQNFFEEVKQWTTIFNYPSTPLSNVTQTNLGSNYHNATFGPNFQAILATGVGHTVPLFEQQYLQFLGIA
B5: enzyme (Mus musculus, UniProt P08680); chain DRKSKIVQRAAPEVQEDVKTFKTDLLSTMDSTTRSHSFPSFQEPEQTEGAVPHLIQNNMTGSQAFGYDQFFRDKIMEKKQDHTYRVFKTVNRWANAYPFAQHFSEASMASKDVSVWCSNDYLGISRHPRVLQAIEETLKNHGAGAGGTRNISGTSKFHVELEQELAELHQKDSALLFSSCFVANDSTLFTLAKLLPGCEIYSDAGNHASMIQGIRNSGAAKFVFRHNDPGHLKKLLEKSDPKTPKIVAFETVHSMDGAICPLEELCDVAHQYGALTFVDEVHAVGLYGARGAGIGERDGIMHKLDIISGTLGKAFGCVGGYIASTRDLVDMVRSYAAGFIFTTSLPPMVLSGALESVRLLKGEEGQALRRAHQRNVKHMRQLLMDRGFPVIPCPSHIIPIRVGNAALNSKICDLLLSKHSIYVQAINYPTVPRGEELLRLAPSPHHSPQMMENFVEKLLLAWTEVGLPLQDVSVAACNFCHRPVHFELMSEWERSYFGNMGPQYVTTYA
B6: protein F222A (Planktothrix agardhii, UniProt F5B6Z0); chain MIVNVIQKDRLKEQKLQFIRNHQQAFDVEPIYPLPLFEDFVTSIEGDCSLEASCKIESDKLIASRFLLFFEDKTQEWQKYLHQSLTFFGLVENRVGVKINYSLLQQFLGSSFDFSKVTVLSAGIDLRNNLAESSLKMHIRIKDYPEKLDKAFALSDGAADGNYLKDFVNLIGFDFYFNGKSEIEIYAEVQEDDFFKPEINNLVWQHFPKTALQPLKASSLFATGLSKANNNPVLYYHLKNRQDLTNYFKLNDTAQRVHSFYQHQDILPYMWVGTAQKELEKTRIENIRLYYYKSFKMESN
B7: enzyme (Mortierella alpina, UniProt U5Y6A8); chain MAPPHVVDEQVRRRIVVEDEIQSKKQFERNYVPMDFTIKEIRDAIPAHLFIRDTTKSILHVVKDLVTIAIVFYCATFIETLPSLALRVPAWITYWIIQGTVMVGPWILAHECGHGAFSDSKTINTIFGWVLHSALLVPYQAWAMSHSKHHKGTGSMSKDVVFIPATRSYKGLPPLEKPAAEEEVLEQEHHHHEESIFAETPIYTLGALFFVLTLGWPLYLIMNFSGHEAPHWVNHFQTVAPLYEPHQRKNIFYSNCGIVAMGSILTYLSMVFSPLTVFMYYGIPYLGVNAWIVCITYLQHTDPKVPHFRDNEWNFQRGAACTIDRSFGTIVNHLHHHIGDSHQCHHMFSQMPFYNAVEATKHLKAKLGKYYIFDDTPIAKALYRNWRECKFVEDEGDVVFYKH
B8: WlbA (Thermus thermophilus, UniProt Q72KX8); chain MTRFALTGLAGYIAPRHLKAIKEVGGVLVASLDPATNVGLVDSFFPEAEFFTEPEAFEAYLEDLRDRGEGVDYLSIASPNHLHYPQIRMALRLGANALSEKPLVLWPEEIARLKELEARTGRRVYTVLQLRVHPSLLALKERLGQEKGAKDVVLTYVTGRGKWYGKSWKVDEAKSGGLATNIGIHFFDLLAWLFGRALHVEVHARTPTVNAGYLELEGARVRWFLSIDPSFVPEPLRRQGKRTYRSIAVDGEEVEFSEGFTDLHTEVYRKTLAGEGFGLDEAAEAIRVAALLRTLPLSQPSPENRHPFLG
B9: pdh1 (Macropsalliota meleagris, UniProt Q3L245); chain AITYQHPDDLPSGVDYDFIVAGGGTAGLVVASRLSENSNWKVLVIEAGPSNKDAFVTRVPGLASTLGAGSPIDWNYTTIPQDGLDGRSLDYPRAKILGGCSTHNGMVYTRGSKDDWNSWAGIIGDQGLGWDSILPAIKKAEKFTQDFTDQSVKGHIDPSVHGFDGKLSVSAAYSNISFNDLLFETTKELNAEFPFKLDMNDGKPIGLGWTQYTIDNHAERSSSATSYLESTGDNVHVLVNTLVTRVLSASGNGTDFRKVEFAVDANSPKKQLEAKKEVIVAGGVIASPQILMNSGIGERKVLQAVGIDTLIDNPSVGKNLSDQGATSVMFDTTLPSTDFDVDAALTEWTNSHTGPLARGARLNHLTFVRLPDDKLNGQDPSSGKNSPHIEFQFAQITPQVPTLGVPKQAPLPAANSYRLLLQLAVVNLYSISRGSISLSDNNPFTYPLIDLNMFKEDIDIAILREGIRSAGRMFSSKAFKNSVNKFVYPPADATSDEDLDAFLRSSTFSYVHGVGTLSMSPKGASWGVVNPDFKVKGTSGLRVVDASVIPHAPAAHTQLPVYAFAEYASALIAKSYN

Substance	substrate	conditions	kcat
dxs (Escherichia coli, UniProt P77488)	O=C(O)C(=O)CO	pH 6.8, 37 °C	0.026 ± 0.001 s⁻¹
B1 (HARS1 Y330C)	Nc1ncnc2c1ncn2[C@@H]1O[C@H](COP(=O)(O)OP(=O)(O)OP(=O)(O)O)[C@@H](O)[C@H]1O	pH 7.5, saturation not reached, added: histidine, tRNAHis 5 µM, MgCl2 10 mM, KCl 150 mM	0.48 s⁻¹
B2 (protein G96D)	O[C@H]1CCCc2ccccc21	pH 7.4, phosphate 400 mM, NADPH 250 µM printed, added: NADP+, reverse reaction	0.021 ± 0.004 s⁻¹
B3 (protein)	NCCOP(=O)(O)O	pH 7.5, added: CTP 0.1 mM	1.15 s⁻¹
AphC (Rhodococcus jostii, UniProt Q0S9X1)	Oc1ccccc1O	pH 8, 25 °C, apparent, added: O2	0.068 s⁻¹
B4 (protein)	CC(=O)Oc1ccc2c(C)cc(=O)oc2c1	pH 6, 30 °C	33.8 ± 5.7 s⁻¹
enzyme (UniProt A0A7J5BGR1)	COc1cc(CN)ccc1O	pH 8, 25 °C	0.017 s⁻¹
B5 (enzyme)	CC(C)(COP(=O)(O)OP(=O)(O)OC[C@H]1O[C@@H](n2cnc3c(N)ncnc32)[C@H](O)[C@@H]1OP(=O)(O)O)[C@@H](O)C(=O)NCCC(=O)NCCSC(=O)CCC(=O)O	pH 7.5, 37 °C	0.25 ± 0.004 s⁻¹
Saccharopine reductase (Saccharomyces cerevisiae, UniProt P38999)	NC(=O)c1ccc[n+]([C@@H]2O[C@H](COP(=O)(O)OP(=O)(O)OC[C@H]3O[C@@H](n4cnc5c(N)ncnc54)[C@H](OP(=O)(O)O)[C@@H]3O)[C@@H](O)[C@H]2O)c1	pH 9, 25 °C, added: saccharopine	13 ± 1 s⁻¹
B6 (protein F222A)	CC(C)=CCC/C(C)=C/COP(=O)(O)OP(=O)(O)O	added: tri-Tyr peptide acceptor	0.122 ± 0.00433 s⁻¹
alanine aminopeptidase (Neisseria meningitidis, UniProt Q9JYV4)	NC(=O)Cc1cc(=O)oc2cc(NC(=O)[C@@H](N)CCCCOCc3ccccc3)ccc12	pH 7.5, 37 °C	3.24 ± 0.03 s⁻¹
enzyme (Pseudomonas aeruginosa, UniProt Q9HXU0)	Nc1ncnc2c1ncn2[C@@H]1O[C@H](COP(=O)(O)OP(=O)(O)OP(=O)(O)O)[C@@H](O)[C@H]1O	pH 7.5, 37 °C, apparent	22.8 s⁻¹
B7 (enzyme)	CCCCC/C=C\C/C=C\CCCCCCCC(=O)SCCNC(=O)CCNC(=O)[C@H](O)C(C)(C)COP(=O)(O)OP(=O)(O)OC[C@H]1O[C@@H](n2cnc3c(N)ncnc32)[C@H](O)[C@@H]1OP(=O)(O)O	pH 7.5, 28 °C	0.187 ± 0.01 s⁻¹
B8 (WlbA)	O=C(O)CCC(=O)C(=O)O	pH 8.5, 25 °C, added: enzyme-bound NAD(H)	240 ± 10 s⁻¹
B9 (pdh1)	CN(C)c1ccc2nc3ccc(N(C)C)c([N+](=O)[O-])c3[s+]c2c1	pH 7.5, 22 °C, apparent	0.34 ± 0.08 s⁻¹
Paox (Mus musculus, UniProt Q8C0L6)	CC(=O)NCCCNCCCCNCCCN	pH 10, 30 °C	49 ± 12 s⁻¹
Tcur_2987 (Thermomonospora curvata, UniProt D1A807)	Nc1c(S(=O)(=O)O)cc(Nc2cccc(S(=O)(=O)CCOS(=O)(=O)O)c2)c2c1C(=O)c1ccccc1C2=O	pH 3, sigmoidal kinetics, added: H2O2 1 mM	96 ± 2 s⁻¹

A few entries again:
Substance	substrate	conditions	kcat
B9 (pdh1)	CN(C)c1ccc2nc3ccc(N(C)C)c([N+](=O)[O-])c3[s+]c2c1	pH 7.5, 22 °C, apparent	0.34 ± 0.08 s⁻¹
enzyme (Pseudomonas aeruginosa, UniProt Q9HXU0)	Nc1ncnc2c1ncn2[C@@H]1O[C@H](COP(=O)(O)OP(=O)(O)OP(=O)(O)O)[C@@H](O)[C@H]1O	pH 7.5, 37 °C, apparent	22.8 s⁻¹
